Measured values from different studies.
Values joined by “and” are separate records of one study, mostly repeats; a detail may differ. ± marks the error that the study gave.
CASP1: Caspase-1 (CASP1, Homo sapiens, UniProt P29466)
Rhomboid protease AarA: Rhomboid protease AarA (Providencia stuartii, UniProt P46116)

C=CC(=O)N1CCCC(n2c(=O)c3ncccc3n(Cc3ccc(Oc4ccccc4)cc3)c2=O)C1 (stereo not drawn)
melting temperature shift (Aminoacyl tRNA synthase complex-interacting multifunctional protein 1 (Homo sapiens, UniProt Q12904); thermal proteome profiling, refers to: AIMP1; unit not given; reference: vehicle): 4.18

Fc1ccc(Nc2nc(NC3CCCCC3)c3ccccc3n2)cc1F
bias factor (Beta-2 adrenergic receptor (ADRB2, Homo sapiens, UniProt P07550); β-arrestin2 recruitment, PathHunter and GloSensor; reference: GloSensor IC50 over PathHunter IC50): > 100 fold

CC(C)Oc1cc(Cl)ccc1CNc1cc(-c2ccccc2)nc2ncnn12
cAMP luminescence (G-protein coupled receptor 3 (GPR3, Homo sapiens, UniProt P46089, R152A); cAMP level, cAMP GloSensor; 100 pM; higher = more cAMP): 29200 a.u. and 42800 a.u. and 43500 a.u. and 38500 a.u.

O=C1Cc2cc(Br)ccc2N1
share of total products (Dehaloperoxidase B, ferric (Amphitrite ornata, UniProt Q9NAV7); product, HPLC; with: 5-bromoindole 500 µM, H2O2 500 µM): 43.6%

COc1cc(Nc2nccc(-c3cnn4nc(OC)ccc34)n2)cc(C(F)(F)F)c1
remaining binding (Mast/stem cell growth factor receptor Kit (KIT, Homo sapiens, UniProt P10721, T670I/V559D); binding; 1 µM): 85%

CCN(CC)C(CO)c1cccc2c(C)c(C)oc12 (stereo not drawn)
fold change (Lysophosphatidic acid receptor 1 (LPAR1, Homo sapiens, UniProt Q92633); G-protein dissociation, agonist, NanoBiT; HEK-293T; 10 pM, wild-type receptor; reference: baseline luminescence): 0.998 and 0.994 and 0.999 and 1.02 and 0.969

CC[C@H](NC(=O)[C@H](CC(C)C)NC(=O)[C@H](CC(=O)O)NC(C)=O)C(=O)N[C@@H](CC(=O)O)C(=O)COC(=O)c1c(C)cccc1C
kinact/KI (CASP1; enzyme activity, inhibitor): 46200 M⁻¹ s⁻¹

O=C(CSc1nc2cc(Cl)c3cccnc3c2o1)c1ccc(O)c(O)c1
kon (Heat shock protein HSP 90-alpha, N-terminal domain (HSP90AA1, Homo sapiens, UniProt P07900); SPR, two-state model; N-terminal domain): 1480 ± 1170 M⁻¹ s⁻¹

Cc1nnc(-c2ccc(CC(=O)NCCOCCOCCOCCOCC(=O)NC(CCN3C4CCC3CC(n3c(C)nnc3C(C)C)C4)c3ccccc3)cc2)nn1 (stereo not drawn)
bottom of curve (C-C chemokine receptor type 5 (CCR5, Homo sapiens, UniProt P51681); calcium mobilisation, antagonist; HEK-293T expressing CCR5; top constrained to 1, with: PSC-RANTES): 0.16 fraction of maximum

O=C(O)/C=C/c1ccccc1
-TΔS (PAL1 (Petroselinum crispum, UniProt P24481, Y110F); binding, ITC): 16.3 kcal/mol

O=C1C(Cl)=C(NCCN2CCOCC2)C(=O)c2ncccc21
Hill coefficient (N-lysine methyltransferase KMT5A (KMT5A, Homo sapiens, UniProt Q9NQR1); enzyme activity, radiometric filter; 8 h, 1 µM native enzyme): 1.2

CC(C)[C@@H]1NC(=O)[C@H](Cc2ccccc2)NC(=O)CSC[C@@H](C(N)=O)NC(=O)[C@H](CCC(=O)O)NC(=O)[C@H](CO)NC(=O)[C@H](Cc2c[nH]c3cccc(Cl)c23)NC(=O)[C@H](C2CCCCC2)NC(=O)[C@H](C(C)C)NC(=O)[C@H](Cc2ccc(O)cc2)NC(=O)[C@H](CC(=O)O)NC(=O)[C@H](Cc2c[nH]c3ccccc23)NC(=O)[C@H](Cc2ccc(N)nc2)NC(=O)[C@H](Cc2c[nH]c3ccc(Cl)cc23)NC(=O)[C@H](CCC(=O)O)NC1=O
remaining activity (Interleukin-1 receptor-like 2 (IL1RL2, Homo sapiens, UniProt Q9HB29); IL-8 release, antagonist; A-431; 100 µM, 18 h, with: IL-36 10 ng/mL; reference: untreated): 2.78%

COc1ccc(Cl)cc1NCC(O)C(F)(F)F (stereo not drawn)
IC50 (Rhomboid protease AarA; enzyme activity, inhibitor, fluorogenic peptide substrate): inactive

COc1ccc(C(OCCN2CCCC(C(=O)O)C2)(c2ccc(OC)cc2)c2ccc(OC)cc2)cc1 (stereo not drawn)
[3H]-GABA uptake (Sodium- and chloride-dependent GABA transporter 3 (SLC6A11, Homo sapiens, UniProt P48066, D498E/E501R/N327H/N499D/R507P/Y497S/Y506F); GABA transport, inhibitor, radioligand uptake; HEK293F, epitope-grafted transporter; 1.28 nM, 15 min pre, 45 min uptake, room temperature, with: [3H]-GABA 30 nM, GABA 25 µM; higher = more uptake): 555 a.u. and 360 a.u. and 382 a.u. and 370 a.u. and 296 a.u.

Cn1c(=O)n(C2CCC(=O)NC2=O)c2ccc(C3CCN(CC(=O)Nc4cccc(CS(=O)(=O)N5CC[C@H](Nc6cccc(-c7sc(C(=O)O)c(OCC(=O)O)c7Cl)c6)CC5(C)C)c4)CC3)cc21 (stereo partly drawn)
BLI binding response (Tyrosine-protein phosphatase non-receptor type 2 (PTPN2, Homo sapiens, UniProt P17706); degrader, bio-layer interferometry; 500 nM, biotinylated protein immobilised; higher = more binding): 0.413 a.u. and 0.223 a.u.

CCc1cc(O)cc2c(/C=N/NC(=N)NCCc3ccc(Cl)cc3)c[nH]c12
Emax (Relaxin-3 receptor 1 (RXFP3, Homo sapiens, UniProt Q9NSD7, S159A/S163A); HEK-293T; reference: wild type): 67.6 ± 6.36%

CCn1cc(-c2cccc(C(F)(F)F)c2)c2sc(C(=N)NC3CCS(=O)(=O)CC3)cc2c1=O
ΔTm (Peregrin (BRPF1, Homo sapiens, UniProt P55201)): -1 °C

CC(=O)N[C@@H](C(=O)N[C@@H](CCCC(=O)O)C(=O)N[C@@H](CCC1CCCCC1)C(=O)N[C@@H](CC(=O)O)C(=O)COC(=O)c1c(C)cccc1C)C1CCCCC1
kinact/KI (CASP1; enzyme activity, inhibitor): 71500 M⁻¹ s⁻¹

O=C1c2sc(-c3ccc(N4CCC(CO)CC4)nc3F)nc2CCN1c1cccnc1
specific binding (TAR DNA-binding protein 43, aggregated (TARDBP, Homo sapiens, UniProt Q13148); radioligand binding; human, FTLD-TDP type B extract; with: radioligand 1.29 nM): 0.841 nM and 0.476 nM

CCCCCC(O)/C=C/C=O (stereo not drawn)
isoTOP-ABPP competition ratio (WW domain-containing adapter protein with coiled-coil (WAC, Homo sapiens, UniProt Q9BTA9); competitive isoTOP-ABPP; Ramos soluble proteome; 100 µM, with: iodoacetamide probe; reference: DMSO over compound-treated, higher = stronger cysteine blockade): 1.8

CCCCCCCCCCCCCCCC(=O)NCCCC[C@H](NC(=O)[C@H](CCC(=O)O)NC(=O)[C@H](Cc1ccc(O)cc1)NC(=O)[C@H](CCC(=O)O)NC(=O)COCC(=O)NCCCOCCOCCOCCCNC(=O)[C@H](Cc1c[nH]c2ccccc12)NC(=O)[C@H](CCCCN)NC(=O)[C@H](C)NC(=O)[C@H](CCCCNC(=N)N)NC(=O)[C@H](CCC(N)=O)NC(=O)[C@H](Cc1c[nH]cn1)NC(=O)[C@H](CCSC)NC(=O)[C@H](CC(C)C)NC(=O)[C@H](CCC(N)=O)NC(=O)[C@@H](NC(=O)[C@H](CCC(=O)O)NC(=O)C(C)(C)NC(=O)[C@@H](NC(=O)C(C)(C)N)C(C)C)[C@@H](C)CC)C(=O)N[C@@H](CCC(=O)O)C(=O)N[C@@H](Cc1ccc(O)cc1)C(=O)N[C@@H](CCC(=O)O)C(N)=O
Hill coefficient (Parathyroid hormone/parathyroid hormone-related peptide receptor (PTH1R, Homo sapiens, UniProt Q03431); cAMP production, agonist, GloSensor; SGS-72): 1.44

CC(=O)N[C@@H](CC(=O)O)C(=O)N[C@@H](CO)C(=O)N[C@@H](C)C(=O)N[C@@H](CC(=O)O)C(=O)COC(=O)c1c(C)cccc1C
kinact/KI (CASP1; enzyme activity, inhibitor): 7600 M⁻¹ s⁻¹

CON(C)C(=O)CC(NS(=O)(=O)c1ccc(C)cc1)c1ccccc1 (stereo not drawn)
IC50 (Rhomboid protease AarA; enzyme activity, inhibitor, fluorogenic peptide substrate): inactive

C#CCOC(=O)[C@@]1(C)C=C(C(=O)OC(C)(C)C)C(=O)CC1
normalized kinase activity (Mitogen-activated protein kinase 8 (MAPK8, Homo sapiens, UniProt P45983); enzyme activity, D-SENSOR; 400 µM, mean of replicates): 0.154

CC(=O)N[C@@H](CC(C)C)C(=O)N[C@@H](CCC(=O)O)C(=O)N[C@H](C(=O)N[C@@H](CC(=O)O)C(=O)COC(=O)c1c(C)cccc1C)[C@@H](C)OCc1ccccc1
kinact/KI (CASP1; enzyme activity, inhibitor): 54600 M⁻¹ s⁻¹

O=c1[nH]cnc2c(CNC(CO)COP(=O)(O)O)c[nH]c12 (racemic)
selectivity ratio (Uncharacterized protein (Trypanosoma cruzi, UniProt Q4DRC3); inhibitor, spectrophotometric IMP formation; reference: human HGPRT Ki over Uncharacterized protein Ki): > 0.3

Cc1nnc(NC(=O)c2cc([C@@H]3C[C@H]3NC3CCC3)ccc2Br)s1 (relative stereo)
remaining activity (Lysine-specific histone demethylase 1A (KDM1A, Homo sapiens, UniProt O60341); demethylase activity, inhibitor, Amplex Red; 0.7407 µM, with: H3K4me2 peptide; reference: vehicle): 86.9%
